Results from different studies.
Compare with care: the assays were run in different laboratories. Numbers after ± are the reported error.
Sodium channel protein type 4 alpha BTX-activated: Sodium channel protein type 4 alpha, BTX-activated (Oryctolagus cuniculus, UniProt G1SLL9)

`CC(C)C[C@@H]1NC(=O)[C@H](Cc2c[nH]cn2)NC(=O)[C@H](CCCCN)NC(=O)[C@@H]2CSSC[C@H](NC(=O)[C@@H](N)[C@@H](C)O)C(=O)N[C@@H](CCCNC(=N)N)C(=O)N[C@@H](Cc3ccc(O)cc3)C(=O)N[C@@H](CC(C)C)C(=O)N[C@@H](Cc3ccccc3)C(=O)NCC(=O)NCC(=O)N[C@H]3CSSC[C@H](NC(=O)[C@H](C)NC1=O)C(=O)N[C@@H](CCCNC(=N)N)C(=O)N[C@@H](CO)C(=O)N[C@@H](C)C(=O)NCC(=O)N[C@@H](CCCCN)C(=O)N[C@@H](Cc1ccc(O)cc1)C(=O)N[C@H](C(=O)N[C@@H](C)C(=O)N[C@@H](Cc1c[nH]c4ccccc14)C(=O)N[C@@H](CC(=O)O)C(=O)NCC(=O)N[C@H](C(=O)N[C@@H](Cc1ccccc1)C(=O)O)[C@@H](C)O)CSSC[C@H](NC(=O)[C@H](CC(=O)O)NC(=O)[C@H](C)NC(=O)[C@H]([C@@H](C)O)NC(=O)[C@H]([C@@H](C)O)NC(=O)[C@H](CCCCN)NC3=O)C(=O)N2` — result for “mole fraction partition coefficient”: 1e+07 ± 300000 (Trp fluorescence titration; POPC:POPG LUVs; pH 7, 2 µM toxin).
With `CCOP(=O)(OCC)Oc1ccc([N+](=O)[O-])cc1` the EC10 was 190 µM (SH-SY5Y; neurite outgrowth, inhibitor; 24 h, nominal concentration).
With `COc1ccc2c(c1)[nH]c1c(C)nccc12` the inhibition was 43% (MERS-CoV spike VSV pseudovirus; pseudovirus entry; 10 µM).
`CCCCCCCCCCCCCCCCCC[N+](C)(C)C.[Br-]` has a k-1 of 5 s⁻¹ (Sodium channel protein type 4 alpha BTX-activated; concentration not given, 0 mV).
`CCOP(=S)(OCC)Oc1nc(Cl)c(Cl)cc1Cl` gave an IC50 of 8.25 ± 0.25 µM (ReNcell VM; intracellular glutathione level, monochlorobimane; 24 h).
`CSCC[C@H](NC(=O)[C@H](CC(C)C)NC(=O)[C@H](C)N)C(=O)N[C@@H](CC(C)C)C(=O)N[C@@H](CCCNC(=N)N)C(=O)N[C@@H](CC(C)C)C(=O)N[C@@H](CC(C)C)C(=O)N[C@@H](CCCNC(=N)N)C(=O)N[C@H](C(=O)O)[C@@H](C)O`: “IFN-γ+ CD8+ T cells” 0.5% (epitope-specific T-cell response, intracellular cytokine staining; PBMC, human; dose not given).
`CC(C)C[C@@H]1NC(=O)[C@H](Cc2c[nH]cn2)NC(=O)[C@H](CCCCN)NC(=O)[C@@H]2CSSC[C@H](NC(=O)[C@@H](N)CCC(=O)O)C(=O)N[C@@H](CCCNC(=N)N)C(=O)N[C@@H](Cc3ccc(O)cc3)C(=O)N[C@@H](CC(C)C)C(=O)N[C@@H](Cc3ccccc3)C(=O)NCC(=O)NCC(=O)N[C@H]3CSSC[C@H](NC(=O)CNC1=O)C(=O)N[C@@H](CCCCN)C(=O)N[C@@H](Cc1ccccc1)C(=O)N[C@@H](CCCNC(=N)N)C(=O)N[C@@H](CC(=O)O)C(=O)N[C@@H](CCCCN)C(=O)N[C@@H](Cc1ccc(O)cc1)C(=O)N[C@H](C(=O)N[C@@H](C)C(=O)N[C@@H](Cc1c[nH]c4ccccc14)C(=O)N[C@@H](CC(=O)O)C(=O)N[C@@H](Cc1ccccc1)C(=O)N[C@H](C(=O)N[C@@H](Cc1ccccc1)C(=O)N[C@@H](CO)C(=O)O)[C@@H](C)O)CSSC[C@H](NC(=O)[C@H](CC(=O)O)NC(=O)[C@H](CO)NC(=O)[C@H]([C@@H](C)O)NC(=O)[C@H]([C@@H](C)O)NC(=O)[C@H](CCCCN)NC3=O)C(=O)N2` — result for “mole fraction partition coefficient”: 4.8e+06 ± 400000 (Trp fluorescence titration; POPC:POPG LUVs; pH 7, 2 µM toxin).
`CCCCCCCCCCCC[N+](C)(C)C.[Cl-]` has a k-1 of 19.3 s⁻¹ (Sodium channel protein type 4 alpha BTX-activated; concentration not given, 0 mV).

A few entries again:
`CCCCCCCCCCCC[N+](C)(C)C.[Cl-]` has a k-1 of 19.3 s⁻¹ (Sodium channel protein type 4 alpha BTX-activated; concentration not given, 0 mV).
